Measurements from different studies.
Each line is one published result; not all experiments were run side by side.
RIOK3: Serine/threonine-protein kinase RIO3 (RIOK3, Homo sapiens, UniProt O14730)

Nc1ncc2c(n1)-c1c([nH]c3ccc(C4=CCOCC4)cc13)CCC2
remaining binding (RIOK3; binding, competition with immobilised ligand; 1 µM): 100%

COc1c(Cl)cccc1Nc1c(-c2ccncc2C#C[C@@]2(C)CCCN2C(=O)/C=C/CN(C)C)[nH]c2c1C(=O)NCC2
remaining binding (RIOK3; binding, competition with immobilised ligand; 3 µM): 93%

C[C@]1(O)CCCN(c2nc(Nc3ccc(S(=O)(=O)N[C@H]4CC[C@H](CN5CCN(c6ccc(C7CCC(=O)NC7=O)cc6F)CC5)CC4)cc3)ncc2C(F)(F)F)C1 (stereo partly drawn)
remaining binding (RIOK3; binding, competition with immobilised ligand; 1 µM): 1.2%

CN(C)CCCN(C(=O)c1nc2ccccc2s1)c1nc2ccc(F)cc2s1
relative translation (Trypanosoma cruzi; reporter mRNA translation, inhibitor, measured: capped polyadenylated Renilla luciferase mRNA; cell-free extract; concentration not given; reference: control RNA): 102%

COc1cc(Nc2nccc(-c3cnn4nc(OC)ccc34)n2)cc(C(F)(F)F)c1
remaining binding (RIOK3; binding, competition with immobilised ligand; 1 µM): 100%

C=CC(=O)N1CCCC(n2c(=O)c3ncccc3n(Cc3ccc(Oc4ccccc4)cc3)c2=O)C1 (stereo not drawn)
remaining binding (RIOK3; cell-free assay, competition with immobilised ligand; 1 µM): 92%

CC(C)=CC1OC(C)(C)C2C=C3C(=O)C(Cl)=CC(O)C3C3C(O)C4OC4C(=O)C132 (stereo not drawn)
remaining binding (RIOK3; cell-free assay, competition with immobilised ligand; 10 µM): 67%

Cc1cnc2nc1Nc1cccc(c1)COC/C=C/COCc1cc(ccc1OCCN1CCOCC1)N2
remaining binding (RIOK3; binding, competition with immobilised ligand; 0.1 µM): 100%

COc1cc(Nc2nc(C)cc(-c3cnn4nc(OC)ccc34)n2)cc(C(F)(F)F)c1
remaining binding (RIOK3; binding, competition with immobilised ligand; 1 µM): 86%

CCN1CCN(Cc2ccc(C(=O)Nc3ccc(C)c(NCc4cnc5[nH]ccc5c4OC)c3)cc2C(F)(F)F)CC1
remaining binding (RIOK3; binding, competition with immobilised ligand; 1 µM): 73%

CNC1C[S+]2CC[S+]3CC[S+](C1)[Ru-4]321([N]=C=S)[n]2c3ccc(OC)cc3c3c4c(c5cc(F)c[n+]1c5c32)C(=O)NC4=O (stereo not drawn)
remaining binding (RIOK3; KinomeScan; 0.1 µM; reference: untreated): 96%

CNC(=O)C1CCN(c2cc(C)c(F)cc2NC(=O)c2ccc(-c3cc(O)ccc3C)c(C)c2)CC1
remaining binding (RIOK3; binding, competition with immobilised ligand; 1 µM): 100%

C=CC(=O)N1CCc2ccc(-n3c(=O)ccc4cnc5ccc(-c6cnn(C)c6)cc5c43)cc21
remaining binding (RIOK3; KINOMEscan; 1 µM; reference: DMSO control): 92%

CC1CN(CCOCCSc2ccc(Cl)cc2)CC(C)O1.O=C(O)C(=O)O (stereo not drawn)
relative translation (Trypanosoma cruzi; reporter mRNA translation, inhibitor, measured: capped polyadenylated Renilla luciferase mRNA; cell-free extract; concentration not given; reference: control RNA): 112%

Cc1ccc(-c2c(/C=C(\C#N)C(=O)NC(C)C)n(CCCO)c3ncnc(N)c23)cc1
remaining binding (RIOK3; cell-free assay, competition with immobilised ligand; 1 µM): 84%

Some of these lines once more:
Cc1cnc2nc1Nc1cccc(c1)COC/C=C/COCc1cc(ccc1OCCN1CCOCC1)N2
remaining binding (RIOK3; binding, competition with immobilised ligand; 0.1 µM): 100%

CNC(=O)C1CCN(c2cc(C)c(F)cc2NC(=O)c2ccc(-c3cc(O)ccc3C)c(C)c2)CC1
remaining binding (RIOK3; binding, competition with immobilised ligand; 1 µM): 100%
